Earlier results that unrelated publications cite.
Compare with care: the assays were run in different laboratories. ± marks the error that the study gave. Converted amounts (≈) assume the structure as drawn.
PI4KB: Phosphatidylinositol 4-kinase beta (PI4KB, Homo sapiens, UniProt Q9UBF8)
UniProt Q9UBF8, sequence (whole entry, looked up): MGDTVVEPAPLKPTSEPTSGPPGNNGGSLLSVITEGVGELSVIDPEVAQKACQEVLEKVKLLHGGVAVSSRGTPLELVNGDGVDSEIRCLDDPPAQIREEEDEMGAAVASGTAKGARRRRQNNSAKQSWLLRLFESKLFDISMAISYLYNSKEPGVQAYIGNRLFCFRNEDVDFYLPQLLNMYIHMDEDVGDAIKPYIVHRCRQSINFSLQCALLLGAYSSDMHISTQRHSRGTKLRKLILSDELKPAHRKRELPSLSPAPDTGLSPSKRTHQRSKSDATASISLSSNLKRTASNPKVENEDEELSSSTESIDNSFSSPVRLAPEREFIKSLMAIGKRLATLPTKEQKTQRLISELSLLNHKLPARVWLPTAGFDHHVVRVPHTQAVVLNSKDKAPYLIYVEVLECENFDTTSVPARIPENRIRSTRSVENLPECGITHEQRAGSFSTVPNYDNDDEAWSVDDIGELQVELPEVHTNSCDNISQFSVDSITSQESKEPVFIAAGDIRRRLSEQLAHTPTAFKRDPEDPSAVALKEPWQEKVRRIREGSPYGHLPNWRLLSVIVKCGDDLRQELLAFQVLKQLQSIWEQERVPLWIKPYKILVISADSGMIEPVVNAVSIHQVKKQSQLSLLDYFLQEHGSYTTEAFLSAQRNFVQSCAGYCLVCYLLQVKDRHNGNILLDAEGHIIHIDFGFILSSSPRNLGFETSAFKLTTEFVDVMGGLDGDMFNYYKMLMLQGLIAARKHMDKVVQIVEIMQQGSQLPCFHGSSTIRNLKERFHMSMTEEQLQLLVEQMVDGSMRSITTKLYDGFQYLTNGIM
UniProt P11712, sequence (whole entry, looked up): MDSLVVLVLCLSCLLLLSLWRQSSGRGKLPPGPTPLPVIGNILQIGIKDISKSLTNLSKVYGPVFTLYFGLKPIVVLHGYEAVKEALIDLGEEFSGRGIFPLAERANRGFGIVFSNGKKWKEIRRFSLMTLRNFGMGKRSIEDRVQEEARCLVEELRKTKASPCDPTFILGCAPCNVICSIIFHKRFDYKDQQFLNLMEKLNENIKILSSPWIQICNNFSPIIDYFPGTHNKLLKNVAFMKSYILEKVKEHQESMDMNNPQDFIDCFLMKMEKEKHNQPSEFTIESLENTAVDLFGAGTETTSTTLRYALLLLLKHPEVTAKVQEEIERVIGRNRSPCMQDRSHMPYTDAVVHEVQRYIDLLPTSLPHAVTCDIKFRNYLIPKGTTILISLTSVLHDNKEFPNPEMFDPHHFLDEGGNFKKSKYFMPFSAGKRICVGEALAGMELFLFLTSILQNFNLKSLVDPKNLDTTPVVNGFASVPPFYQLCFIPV
UniProt P23458, sequence (whole entry, looked up): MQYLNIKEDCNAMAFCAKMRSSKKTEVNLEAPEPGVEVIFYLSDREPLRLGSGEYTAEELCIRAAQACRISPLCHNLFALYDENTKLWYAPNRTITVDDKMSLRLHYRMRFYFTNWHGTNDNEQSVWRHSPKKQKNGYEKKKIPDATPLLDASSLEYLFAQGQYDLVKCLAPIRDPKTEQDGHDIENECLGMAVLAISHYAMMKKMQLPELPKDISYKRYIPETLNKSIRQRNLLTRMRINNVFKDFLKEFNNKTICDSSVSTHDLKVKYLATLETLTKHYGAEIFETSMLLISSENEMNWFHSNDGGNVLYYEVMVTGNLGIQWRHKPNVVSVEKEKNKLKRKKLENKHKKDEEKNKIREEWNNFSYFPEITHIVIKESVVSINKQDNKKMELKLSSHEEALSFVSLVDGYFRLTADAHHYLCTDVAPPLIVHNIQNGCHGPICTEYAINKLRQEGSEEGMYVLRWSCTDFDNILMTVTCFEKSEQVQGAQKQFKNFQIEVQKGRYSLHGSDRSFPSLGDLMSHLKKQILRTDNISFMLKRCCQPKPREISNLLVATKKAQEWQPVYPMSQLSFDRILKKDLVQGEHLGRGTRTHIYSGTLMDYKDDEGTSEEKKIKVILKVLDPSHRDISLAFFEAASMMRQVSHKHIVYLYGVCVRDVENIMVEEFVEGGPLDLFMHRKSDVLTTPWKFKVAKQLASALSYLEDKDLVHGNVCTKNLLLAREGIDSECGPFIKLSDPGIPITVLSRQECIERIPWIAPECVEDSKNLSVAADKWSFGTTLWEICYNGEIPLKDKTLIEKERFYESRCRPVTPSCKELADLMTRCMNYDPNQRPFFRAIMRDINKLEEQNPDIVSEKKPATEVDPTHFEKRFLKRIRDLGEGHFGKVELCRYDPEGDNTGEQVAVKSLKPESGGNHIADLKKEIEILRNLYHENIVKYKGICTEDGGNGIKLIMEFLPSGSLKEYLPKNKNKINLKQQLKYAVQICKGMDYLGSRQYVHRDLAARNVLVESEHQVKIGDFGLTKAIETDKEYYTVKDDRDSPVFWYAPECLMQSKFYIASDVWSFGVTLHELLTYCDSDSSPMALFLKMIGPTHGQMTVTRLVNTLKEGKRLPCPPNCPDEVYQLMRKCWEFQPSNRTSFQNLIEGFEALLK
UniProt Q8IY84, sequence (whole entry, looked up): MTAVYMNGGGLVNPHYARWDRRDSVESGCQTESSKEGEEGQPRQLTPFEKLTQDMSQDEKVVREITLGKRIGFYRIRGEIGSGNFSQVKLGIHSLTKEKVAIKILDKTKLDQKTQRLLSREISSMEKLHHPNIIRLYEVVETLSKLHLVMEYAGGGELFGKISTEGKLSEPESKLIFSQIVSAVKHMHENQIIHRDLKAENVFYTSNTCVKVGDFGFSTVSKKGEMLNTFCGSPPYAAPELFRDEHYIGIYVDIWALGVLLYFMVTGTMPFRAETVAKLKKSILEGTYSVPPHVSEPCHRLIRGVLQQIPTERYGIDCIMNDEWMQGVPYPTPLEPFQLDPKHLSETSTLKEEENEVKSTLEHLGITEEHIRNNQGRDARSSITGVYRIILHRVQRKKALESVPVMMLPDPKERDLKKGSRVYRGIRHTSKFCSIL
UniProt Q13470, sequence (whole entry, looked up): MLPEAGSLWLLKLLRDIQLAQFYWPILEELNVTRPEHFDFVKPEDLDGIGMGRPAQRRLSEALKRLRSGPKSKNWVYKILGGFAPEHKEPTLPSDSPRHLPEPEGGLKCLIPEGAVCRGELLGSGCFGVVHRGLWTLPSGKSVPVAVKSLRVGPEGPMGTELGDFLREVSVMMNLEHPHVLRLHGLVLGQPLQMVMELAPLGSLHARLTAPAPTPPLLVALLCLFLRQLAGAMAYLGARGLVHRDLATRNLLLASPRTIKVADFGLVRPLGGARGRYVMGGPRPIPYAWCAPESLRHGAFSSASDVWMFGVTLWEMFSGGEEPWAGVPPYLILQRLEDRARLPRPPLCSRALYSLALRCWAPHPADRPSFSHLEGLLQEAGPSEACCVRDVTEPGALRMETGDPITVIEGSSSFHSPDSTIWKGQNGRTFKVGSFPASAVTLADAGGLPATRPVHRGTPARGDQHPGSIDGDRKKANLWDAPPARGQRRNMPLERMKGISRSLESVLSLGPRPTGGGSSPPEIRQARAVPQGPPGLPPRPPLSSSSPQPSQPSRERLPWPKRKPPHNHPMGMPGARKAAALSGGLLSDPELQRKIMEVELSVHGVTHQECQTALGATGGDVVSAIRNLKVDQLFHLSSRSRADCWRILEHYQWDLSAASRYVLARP
UniProt Q3SYC2, sequence (whole entry, looked up): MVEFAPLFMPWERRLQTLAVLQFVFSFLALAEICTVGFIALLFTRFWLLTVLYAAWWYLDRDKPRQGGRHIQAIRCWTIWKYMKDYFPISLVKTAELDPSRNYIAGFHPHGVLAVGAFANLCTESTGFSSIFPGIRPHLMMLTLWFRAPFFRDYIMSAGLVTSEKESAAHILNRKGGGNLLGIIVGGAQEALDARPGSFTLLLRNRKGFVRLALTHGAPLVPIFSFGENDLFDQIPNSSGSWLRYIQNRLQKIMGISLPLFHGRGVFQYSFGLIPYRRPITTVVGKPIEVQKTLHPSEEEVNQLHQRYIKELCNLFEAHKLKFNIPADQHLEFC
UniProt P03372, sequence (whole entry, looked up): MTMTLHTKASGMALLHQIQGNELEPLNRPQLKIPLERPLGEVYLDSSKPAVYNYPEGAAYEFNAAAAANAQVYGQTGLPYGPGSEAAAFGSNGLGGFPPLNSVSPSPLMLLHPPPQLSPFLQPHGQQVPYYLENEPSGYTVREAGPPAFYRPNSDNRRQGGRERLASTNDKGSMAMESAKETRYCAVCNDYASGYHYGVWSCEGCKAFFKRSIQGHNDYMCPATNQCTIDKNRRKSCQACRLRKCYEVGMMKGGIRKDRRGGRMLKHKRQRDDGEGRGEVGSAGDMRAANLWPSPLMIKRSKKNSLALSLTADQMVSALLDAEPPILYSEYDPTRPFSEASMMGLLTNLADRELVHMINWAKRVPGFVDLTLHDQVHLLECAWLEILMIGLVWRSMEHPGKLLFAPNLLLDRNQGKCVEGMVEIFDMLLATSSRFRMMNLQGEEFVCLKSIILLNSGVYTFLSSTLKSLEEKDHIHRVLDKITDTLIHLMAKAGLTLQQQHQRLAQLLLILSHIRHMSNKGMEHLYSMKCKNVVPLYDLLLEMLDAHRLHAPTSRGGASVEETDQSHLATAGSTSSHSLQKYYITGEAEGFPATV
UniProt Q99873, sequence (whole entry, looked up): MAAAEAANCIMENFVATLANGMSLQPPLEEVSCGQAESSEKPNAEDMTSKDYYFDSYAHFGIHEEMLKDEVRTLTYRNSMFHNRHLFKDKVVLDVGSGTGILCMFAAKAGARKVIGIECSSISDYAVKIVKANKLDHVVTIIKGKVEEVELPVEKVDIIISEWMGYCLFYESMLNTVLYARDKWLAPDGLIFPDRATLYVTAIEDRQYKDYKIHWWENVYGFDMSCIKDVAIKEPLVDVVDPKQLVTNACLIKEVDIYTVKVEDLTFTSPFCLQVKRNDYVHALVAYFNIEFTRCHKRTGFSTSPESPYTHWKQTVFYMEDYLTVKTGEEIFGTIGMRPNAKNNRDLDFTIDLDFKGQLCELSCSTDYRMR

CCN(c1cc(-c2ccc(CN3CCOCC3)cc2)cc(C(=O)NCc2c(C)cc(C)[nH]c2=O)c1C)C1CCOCC1  inhibition (PRMT1 (Homo sapiens, UniProt Q99873); enzyme activity, inhibitor; 1 µM): 5 ± 4%
Cc1ccc(C2=C(c3nn[nH]n3)C(O)=N[C@@](c3ccc(OCCCC(F)(F)F)cc3)(C(F)(F)F)C2)cc1  plasma dicarboxylic acid level (MOGAT2 (Homo sapiens, UniProt Q3SYC2); item: dicarboxylic acid 18:1; plasma; concentration not given, phase I clinical study): increased
COc1ccccc1Oc1cccc(CN2CCC3(CC2)C(=O)NCN3CCc2ccccc2)c1  EC50 (human CCR8 V109A mutant (TM3); IP accumulation, agonist): 7.7 nM
O=C(Nc1nc2ccccc2[nH]1)c1ccccc1  response (SUMO1/sentrin specific peptidase 7; 5 µM, PubChem AID 434973): 93%
Cc1cccc2cc3ccc4cccc5ccc(c12)c3c45  relative potency (Ahr (Rattus norvegicus, UniProt P41738); 50% effect level; baseline: benzo[a]pyrene): 1.2
O=[N+]([O-])O  Km (napA (Campylobacter jejuni, UniProt Q9PPD9); reduction, substrate): 3.4 µM
CNC(C)C1CCC(N)C(OC2C(N)CC(N)C(OC3OCC(C)(O)C(NC)C3O)C2O)O1 (stereo not drawn)  MIC (Pseudomonas aeruginosa; clinical isolate RKI-No_321/16): 2 µg/mL (≈ 4.19 µM)
O=C(CCCCCCc1ccccc1)c1ncc(-c2ccccn2)o1  binding (cannabinoid CB2 receptor; concentration not given): no binding
NCCc1c[nH]c2ccc(O)cc12  affinity reduction (5-HT2A receptor Y7.43A; concentration not given; baseline: wild type receptor): 10 fold
C=CC(=O)N1CCC(C(=O)NCC(=O)N2CCN(c3nc(-c4cnc(N)nc4C(F)F)nc(N4CCOCC4)n3)CC2)CC1  remaining activity (PIK3CA (Homo sapiens, UniProt P42336, H1047Y); kinase activity; 1 µM): 5.9%
CC(C)=CCCC(C)=CC=O (mixture of isomers)  conversion (YqjM (Old Yellow Enzyme homolog); ene-reductase biotransformation, substrate): 57 to 70%
Cc1cc(NC(=O)c2cccc(NC(=O)/C=C/CN(C)C)c2)ccc1Nc1nccc(-c2cccnc2)n1  remaining activity (TNK1 (Homo sapiens, UniProt Q13470); enzyme activity, inhibitor; 1 µM; baseline: vehicle): 60%
CCCN(CCC)S(=O)(=O)c1ccc(C(=O)O)cc1  Ki (substrate uptake, inhibitor; human kidney slices; 10 min, together with: benzylpenicillin 0.1 µM): 3000 nM
Cc1nc(NC(=O)N2CCC[C@H]2C(N)=O)sc1-c1ccnc(C(C)(C)C(F)(F)F)c1  remaining binding (PI4KB; KinomeScan competition binding; 10 µM): 1.7%
CCCCCN1C[C@H](O)[C@@H](O)[C@H](O)[C@@H]1CO  inhibition (lactase; concentration not given): inactive
Nc1cc(C(F)(F)F)c(-c2nc(N3CCOCC3)nc(N3CCOCC3)n2)cn1  remaining binding (PI4KB; KinomeScan competition binding; 10 µM): 95%
COc1ccccc1Oc1cccc(CN2CCC(NC(=O)C3CC(=O)Nc4ccccc43)CC2)c1 (stereo not drawn)  EC50 (human CCR8 V109A mutant (TM3); IP accumulation, agonist): 33 nM
Cc1c(C#N)cccc1[C@@H](C)Nc1nnc(C)c2cnc(N3CCOCC3)cc12  IC50 (PC-9; ERK phosphorylation, In-Cell Western, item: phospho-ERK): 218 ± 22.4 nM
Nc1cc(C(F)(F)F)c(-c2nc(N3CCOCC3)nc(N3CCOCC3)n2)cn1  remaining activity (NIM1K (Homo sapiens, UniProt Q8IY84); enzyme activity; 10 µM; baseline: untreated): 92%
CNC(=O)[C@H]1S[C@@H](n2cnc3c(NCc4cccc(I)c4)nc(Cl)nc32)[C@H](O)[C@@H]1O  activation (ADORA3 (Homo sapiens, UniProt P0DMS8); agonist; concentration not given; baseline: known A3AR agonist): 114 ± 9%
Cc1cc(-c2nccc3c2ccn3CC(=O)Nc2ccc(-c3cnccn3)cn2)ccn1  Cmax (item: total drug; rat; dose not given, 1-month toxicology study): 27.9 µM
CC(=O)N[C@@H](COP(=O)(O)O)C(=O)N1CCC[C@H]1C(=O)N[C@@H](C)C(=O)N[C@@H](Cc1ccccc1)C(N)=O  ΔH (Breast cancer type 1 susceptibility protein, tandem BRCT domains (BRCA1, Homo sapiens, UniProt P38398); isothermal titration calorimetry): -14.7 ± 0.8 kcal/mol
OC[C@H]1OC(O)[C@H](O)[C@@H](O)[C@@H]1O (stereo partly drawn)  K0.5 (human hexokinase 4; substrate): 8.4 ± 0.2 mM
Cc1c(CN2CCN(C(=O)[C@H](C)O)CC2)sc2c(N3CCOCC3)nc(-c3cnc(N)nc3)nc12  remaining binding (Tyrosine-protein kinase JAK1, JH2 pseudokinase domain (JAK1, Homo sapiens, UniProt P23458); KinomeScan competition binding; 10 µM): 0%
COC(=O)[C@@H]1[C@H]2C[C@H]3c4[nH]c5ccccc5c4CCN3C[C@@H]2CC[C@@H]1O  Hill coefficient (ADRA2A (Homo sapiens, UniProt P08913); historical reference value): 0.9
CN(C)C(=O)c1cc2cnc(Nc3ccc(N4CCNCC4)cn3)nc2n1C1CCCC1  terminal half-life (monkey and rodents): 2 to 5 h
C[S+](CC[C@H](N)C(=O)[O-])C[C@H]1O[C@@H](n2cnc3c(N)ncnc32)[C@H](O)[C@@H]1O (stereo partly drawn)  Km (DNMT1; substrate; together with: near-saturating dI-dC oligo): 2.7 µM
C[C@]12CC[C@@H]3c4ccc(O)cc4C[C@@H](CCCCCCCCC[S+]([O-])CCCC(F)(F)C(F)(F)F)[C@H]3[C@@H]1CC[C@@H]2O (stereo partly drawn)  average degradation (Estrogen receptor (ESR1, Homo sapiens, UniProt P03372); degrader; human patients; 500 mg): ~50%
COc1cc(Cc2cnc(N)nc2N)cc(OC)c1OC  Km (Cytochrome P450 2C9 (CYP2C9, Homo sapiens, UniProt P11712); substrate): 428 to 1330 µM
CC1(C)S[C@@H]2[C@H](NC(=O)[C@H](N)c3ccccc3)C(=O)N2[C@H]1C(=O)O  MIC (Pseudomonas aeruginosa; clinical isolate RKI-No_696/15): > 16 µg/mL
